Measured values from different studies.
Lines come from different studies, so protocols differ. Numbers after ± are the reported error.
NR3C1: Glucocorticoid receptor (NR3C1, Homo sapiens, UniProt P04150)
Slc6a2: Transporter (Slc6a2, Rattus norvegicus, UniProt Q63380)

The chains behind the UniProt entries cited, without tags or fusion partners. Residues count along the entry.
UniProt P04150, whole entry: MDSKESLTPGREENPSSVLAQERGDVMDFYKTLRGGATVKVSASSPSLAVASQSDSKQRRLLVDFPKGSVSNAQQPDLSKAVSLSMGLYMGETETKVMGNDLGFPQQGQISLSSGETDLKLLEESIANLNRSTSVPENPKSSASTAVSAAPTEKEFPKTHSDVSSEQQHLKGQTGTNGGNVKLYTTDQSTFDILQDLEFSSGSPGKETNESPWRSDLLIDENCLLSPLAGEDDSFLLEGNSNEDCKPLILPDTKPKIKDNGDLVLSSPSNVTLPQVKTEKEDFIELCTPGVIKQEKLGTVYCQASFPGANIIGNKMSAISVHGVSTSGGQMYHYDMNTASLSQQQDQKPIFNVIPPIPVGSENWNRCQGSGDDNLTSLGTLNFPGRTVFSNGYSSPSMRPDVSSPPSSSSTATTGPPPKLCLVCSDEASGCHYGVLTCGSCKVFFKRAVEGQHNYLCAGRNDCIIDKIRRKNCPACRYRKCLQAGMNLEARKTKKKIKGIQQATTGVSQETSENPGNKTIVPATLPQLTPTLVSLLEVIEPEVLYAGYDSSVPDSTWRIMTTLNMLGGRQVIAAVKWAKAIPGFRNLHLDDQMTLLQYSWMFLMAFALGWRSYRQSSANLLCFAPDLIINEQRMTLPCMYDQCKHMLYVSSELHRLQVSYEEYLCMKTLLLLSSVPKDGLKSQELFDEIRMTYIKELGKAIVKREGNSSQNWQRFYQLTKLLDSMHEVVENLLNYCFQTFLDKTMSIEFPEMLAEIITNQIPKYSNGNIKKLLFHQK
UniProt Q63380, 1-617: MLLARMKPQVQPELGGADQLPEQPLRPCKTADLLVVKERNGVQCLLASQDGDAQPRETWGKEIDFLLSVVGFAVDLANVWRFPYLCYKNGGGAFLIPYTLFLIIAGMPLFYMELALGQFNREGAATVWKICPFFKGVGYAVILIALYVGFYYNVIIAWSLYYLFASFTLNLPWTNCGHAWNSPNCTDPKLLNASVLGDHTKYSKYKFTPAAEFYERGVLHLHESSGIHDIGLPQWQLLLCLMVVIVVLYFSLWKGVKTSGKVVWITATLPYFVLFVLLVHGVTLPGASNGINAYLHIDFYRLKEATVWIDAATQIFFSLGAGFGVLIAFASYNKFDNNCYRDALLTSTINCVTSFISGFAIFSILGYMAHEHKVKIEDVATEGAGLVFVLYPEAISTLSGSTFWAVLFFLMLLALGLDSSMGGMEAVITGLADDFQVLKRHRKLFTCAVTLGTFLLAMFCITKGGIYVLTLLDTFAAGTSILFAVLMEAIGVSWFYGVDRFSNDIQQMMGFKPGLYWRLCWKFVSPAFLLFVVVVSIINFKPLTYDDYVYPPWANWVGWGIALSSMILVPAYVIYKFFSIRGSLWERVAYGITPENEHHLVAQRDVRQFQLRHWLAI
UniProt P28827, whole entry, looked up: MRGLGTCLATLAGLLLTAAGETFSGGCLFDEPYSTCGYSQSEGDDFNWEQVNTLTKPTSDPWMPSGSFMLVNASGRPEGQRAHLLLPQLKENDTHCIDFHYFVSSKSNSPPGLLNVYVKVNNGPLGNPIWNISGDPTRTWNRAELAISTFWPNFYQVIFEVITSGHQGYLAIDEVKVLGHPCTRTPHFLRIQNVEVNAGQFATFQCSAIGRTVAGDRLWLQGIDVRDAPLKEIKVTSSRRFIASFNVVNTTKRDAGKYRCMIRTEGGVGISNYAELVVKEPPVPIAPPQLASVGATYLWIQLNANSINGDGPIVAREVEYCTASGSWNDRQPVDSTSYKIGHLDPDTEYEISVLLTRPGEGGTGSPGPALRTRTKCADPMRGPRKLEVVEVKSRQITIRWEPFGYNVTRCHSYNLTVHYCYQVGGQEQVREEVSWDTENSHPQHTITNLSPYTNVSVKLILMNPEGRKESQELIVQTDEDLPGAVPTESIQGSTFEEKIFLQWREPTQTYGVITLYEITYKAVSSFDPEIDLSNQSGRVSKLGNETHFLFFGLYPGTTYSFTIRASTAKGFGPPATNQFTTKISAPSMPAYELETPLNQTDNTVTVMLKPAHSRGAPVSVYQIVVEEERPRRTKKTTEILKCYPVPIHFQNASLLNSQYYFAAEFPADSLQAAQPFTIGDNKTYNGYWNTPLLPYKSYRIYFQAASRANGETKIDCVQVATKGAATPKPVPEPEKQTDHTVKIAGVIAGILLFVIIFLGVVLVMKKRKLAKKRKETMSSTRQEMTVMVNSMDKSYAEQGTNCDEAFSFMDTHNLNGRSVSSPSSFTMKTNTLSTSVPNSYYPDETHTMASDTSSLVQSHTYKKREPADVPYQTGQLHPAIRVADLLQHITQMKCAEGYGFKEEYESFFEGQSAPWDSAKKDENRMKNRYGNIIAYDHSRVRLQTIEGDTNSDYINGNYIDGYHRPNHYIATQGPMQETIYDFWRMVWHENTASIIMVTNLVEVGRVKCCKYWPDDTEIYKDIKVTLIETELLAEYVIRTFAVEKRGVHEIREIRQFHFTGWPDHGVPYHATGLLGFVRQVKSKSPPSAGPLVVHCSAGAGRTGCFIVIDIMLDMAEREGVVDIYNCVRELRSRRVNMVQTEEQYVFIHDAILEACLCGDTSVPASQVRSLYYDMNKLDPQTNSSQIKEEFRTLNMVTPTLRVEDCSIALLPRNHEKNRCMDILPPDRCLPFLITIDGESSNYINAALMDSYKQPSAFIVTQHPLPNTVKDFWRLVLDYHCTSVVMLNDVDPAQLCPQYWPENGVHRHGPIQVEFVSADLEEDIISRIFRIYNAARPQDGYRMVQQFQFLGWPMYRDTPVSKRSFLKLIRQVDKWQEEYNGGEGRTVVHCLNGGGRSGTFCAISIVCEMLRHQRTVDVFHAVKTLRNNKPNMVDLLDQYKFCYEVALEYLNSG
UniProt P04798, whole entry: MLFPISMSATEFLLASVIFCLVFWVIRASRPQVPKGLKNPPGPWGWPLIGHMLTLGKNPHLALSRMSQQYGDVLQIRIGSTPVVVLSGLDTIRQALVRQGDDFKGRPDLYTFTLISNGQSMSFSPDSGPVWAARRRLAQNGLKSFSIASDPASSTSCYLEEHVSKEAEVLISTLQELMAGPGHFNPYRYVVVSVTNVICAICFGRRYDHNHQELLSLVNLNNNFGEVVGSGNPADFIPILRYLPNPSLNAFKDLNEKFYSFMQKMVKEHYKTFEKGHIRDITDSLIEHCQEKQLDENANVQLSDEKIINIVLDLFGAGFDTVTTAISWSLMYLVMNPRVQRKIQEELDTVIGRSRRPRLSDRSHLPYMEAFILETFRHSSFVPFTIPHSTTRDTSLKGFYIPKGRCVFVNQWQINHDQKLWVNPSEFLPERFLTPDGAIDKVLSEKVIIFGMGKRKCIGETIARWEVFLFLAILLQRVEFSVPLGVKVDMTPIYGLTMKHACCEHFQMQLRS
UniProt O94804, whole entry: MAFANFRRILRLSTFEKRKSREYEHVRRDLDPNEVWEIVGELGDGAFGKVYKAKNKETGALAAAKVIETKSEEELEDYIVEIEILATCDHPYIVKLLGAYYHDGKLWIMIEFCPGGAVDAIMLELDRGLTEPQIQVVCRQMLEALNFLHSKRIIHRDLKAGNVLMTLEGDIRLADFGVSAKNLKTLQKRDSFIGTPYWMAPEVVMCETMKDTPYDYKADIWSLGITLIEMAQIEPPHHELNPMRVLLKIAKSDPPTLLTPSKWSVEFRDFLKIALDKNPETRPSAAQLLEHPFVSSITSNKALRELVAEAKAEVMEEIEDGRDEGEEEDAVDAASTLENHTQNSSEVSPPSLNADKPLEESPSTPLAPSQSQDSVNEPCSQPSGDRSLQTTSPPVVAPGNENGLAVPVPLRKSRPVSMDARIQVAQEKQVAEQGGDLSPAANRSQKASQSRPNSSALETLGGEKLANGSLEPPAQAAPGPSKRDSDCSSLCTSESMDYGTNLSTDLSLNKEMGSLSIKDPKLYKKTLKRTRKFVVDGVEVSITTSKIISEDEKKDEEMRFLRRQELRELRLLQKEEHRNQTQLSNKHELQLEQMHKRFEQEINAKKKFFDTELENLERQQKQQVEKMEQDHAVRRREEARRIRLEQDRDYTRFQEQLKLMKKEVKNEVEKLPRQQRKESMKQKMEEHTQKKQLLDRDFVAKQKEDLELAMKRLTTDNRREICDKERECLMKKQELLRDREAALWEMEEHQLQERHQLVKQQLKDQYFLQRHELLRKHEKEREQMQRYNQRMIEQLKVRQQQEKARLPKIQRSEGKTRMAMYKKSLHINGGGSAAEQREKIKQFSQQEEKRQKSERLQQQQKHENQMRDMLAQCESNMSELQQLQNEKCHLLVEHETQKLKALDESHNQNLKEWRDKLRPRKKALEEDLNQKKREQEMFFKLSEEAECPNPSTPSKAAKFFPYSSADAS
UniProt Q12809, whole entry: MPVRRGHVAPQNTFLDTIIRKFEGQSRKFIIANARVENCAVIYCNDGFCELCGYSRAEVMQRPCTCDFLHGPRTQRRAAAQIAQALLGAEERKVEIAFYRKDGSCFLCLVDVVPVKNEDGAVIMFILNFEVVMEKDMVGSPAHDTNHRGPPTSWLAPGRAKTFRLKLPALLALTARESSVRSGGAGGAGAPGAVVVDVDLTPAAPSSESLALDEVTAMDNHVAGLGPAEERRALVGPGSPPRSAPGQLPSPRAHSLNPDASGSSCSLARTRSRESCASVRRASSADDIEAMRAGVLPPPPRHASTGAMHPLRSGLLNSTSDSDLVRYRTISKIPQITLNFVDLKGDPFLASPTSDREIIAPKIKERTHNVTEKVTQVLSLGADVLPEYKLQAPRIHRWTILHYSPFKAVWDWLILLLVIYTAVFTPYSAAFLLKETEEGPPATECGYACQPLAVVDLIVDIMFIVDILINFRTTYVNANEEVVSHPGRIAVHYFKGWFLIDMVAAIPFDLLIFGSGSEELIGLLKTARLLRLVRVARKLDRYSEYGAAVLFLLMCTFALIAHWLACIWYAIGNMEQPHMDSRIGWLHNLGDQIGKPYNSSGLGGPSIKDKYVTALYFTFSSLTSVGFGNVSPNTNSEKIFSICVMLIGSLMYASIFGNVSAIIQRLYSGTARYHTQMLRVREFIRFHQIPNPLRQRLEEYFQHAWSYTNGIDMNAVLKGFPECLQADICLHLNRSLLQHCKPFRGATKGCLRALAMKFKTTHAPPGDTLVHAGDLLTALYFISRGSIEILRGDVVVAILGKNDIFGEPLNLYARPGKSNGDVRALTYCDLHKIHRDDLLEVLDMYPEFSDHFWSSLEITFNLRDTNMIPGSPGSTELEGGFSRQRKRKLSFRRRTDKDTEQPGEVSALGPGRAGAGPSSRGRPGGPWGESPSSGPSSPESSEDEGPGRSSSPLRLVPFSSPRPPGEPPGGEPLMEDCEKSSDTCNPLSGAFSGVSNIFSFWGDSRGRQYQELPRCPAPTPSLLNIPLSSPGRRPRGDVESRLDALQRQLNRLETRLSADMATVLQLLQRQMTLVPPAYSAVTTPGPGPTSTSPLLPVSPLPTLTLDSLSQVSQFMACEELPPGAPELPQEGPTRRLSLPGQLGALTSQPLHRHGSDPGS

SMILES = C[C@@]12CC[C@@H]3c4ccc(OP(=O)(O)O)cc4CC[C@@H]3[C@H]1CCC2=O; target or system = NR3C1; assay = nuclear translocation, agonist, enzyme fragment complementation; measurement = EC50; value = > 9 µM
SMILES = O=C(Nc1cccnn1)N1CC(Oc2ccc(-c3ccccc3F)cn2)C1; test system = healthy humans; conditions = oral, single dose; how to read = relative to: dose; measurement = urinary excretion; value = < 0.3%
SMILES = COc1cc(CC(=O)NCC(NC(=O)C(CCCNC(=O)c2cccc(I)c2)NC(=O)C(Cc2ccc(C(F)(F)P(=O)(O)O)cc2)NC(=O)c2ccc(C)c(Br)c2)C(N)=O)ccc1O (centres unmarked); target or system = Receptor-type tyrosine-protein phosphatase mu (Homo sapiens, UniProt P28827); assay = enzyme activity; conditions = 10 µM; measurement = inhibition; value = no inhibition
SMILES = COc1ccc(N2C(=O)N(c3c(C)cccc3Cl)Cc3cnc(Nc4ccc(N5CCN(C)CC5)cc4OC)nc32)nc1; test system = bone marrow-derived dendritic cells, mouse; conditions = added: zymosan A; measurement = CC50; value = 6 ± 1 µM
SMILES = C[C@H]1CCCN1Cc1cc2cnc(NC(=O)c3ccc4c(cnn4C)c3)cc2[nH]1; target or system = mouse Lin-Sca-1+c-Kit+ cells; conditions = 1 and 10 µM; measurement = colony formation; value = no effect
SMILES = Cc1cc(Cl)c2c(c1N)C(=O)c1ccccc1C2=O; target or system = Cytochrome P450 1A1 (CYP1A1, Homo sapiens, UniProt P04798); assay = enzyme activity, inhibitor; test system = supersomes; conditions = direct inhibition; measurement = IC50; value = 0.4 µM
SMILES = CCN1CCN(Cc2ccc(NC(=O)c3ccc(C)c(Oc4ncnc5cc(OC)c(OC)cc45)c3)cc2C(F)(F)F)CC1; target or system = STK10 (Homo sapiens, UniProt O94804); assay = KINOMEscan competition binding; conditions = 1.0 µM; measurement = residual probe binding; value = 0%
SMILES = CC(C)NC(=O)Nc1ccc2c(c1)C(=O)N([C@H](C)CO)C[C@@H](C)[C@H](CN(C)S(=O)(=O)c1ccc(Cl)cc1)O2; target or system = ldlA[mSR-BI] cells; assay = CellTiter-Glo; conditions = concentration not given, 24 h; measurement = cytotoxicity; value = not toxic
SMILES = C/C(=N\Nc1nc2ccccc2n1C)c1ccccn1; target or system = KCNH2 (Homo sapiens, UniProt Q12809); assay = potassium current, inhibitor, manual patch clamp; measurement = IC50; value = 3.78 µM
SMILES = CCc1c(-c2ccccc2)nn2c(=O)cc(-c3cccc(C(=O)O)c3)[nH]c12; test system = mouse; conditions = 10 mg/kg, 24 h; measurement = plasma level; value = not detected
SMILES = N=C(N)NCCc1ccc(OCCCF)c(F)c1 [isotope labelled]; target or system = Slc6a2; test system = healthy Wistar rat, heart; conditions = iv, 10 min, biodistribution; measurement = heart to blood ratio; value = 13.2 ± 1.2
SMILES = C[C@H]1CC[C@@]2(NC1)O[C@@H]1C[C@@H]3[C@@H]4CC=C5C[C@@H](O)CC[C@]5(C)[C@@H]4CC[C@]3(C)[C@H]1[C@@H]2C; target or system = NR3C1; assay = nuclear translocation, agonist, enzyme fragment complementation; measurement = EC50; value = > 9 µM
SMILES = N=C(N)NCCc1ccc(OCCCF)c(Br)c1; target or system = Slc6a2; test system = healthy Wistar rat, heart; conditions = iv, 10 min, biodistribution; measurement = heart to blood ratio; value = 8.7 ± 1.5
SMILES = NC(=O)c1ccc(-n2cccc2Cc2ccccc2O)cc1N[C@H]1CC[C@H](O)CC1; target or system = PC-3 MM-2; conditions = 25 µM, 72 h; measurement = viability; value = > 95%

Repeated from above:
SMILES = C[C@H]1CCCN1Cc1cc2cnc(NC(=O)c3ccc4c(cnn4C)c3)cc2[nH]1; target or system = mouse Lin-Sca-1+c-Kit+ cells; conditions = 1 and 10 µM; measurement = colony formation; value = no effect
SMILES = Cc1cc(Cl)c2c(c1N)C(=O)c1ccccc1C2=O; target or system = Cytochrome P450 1A1 (CYP1A1, Homo sapiens, UniProt P04798); assay = enzyme activity, inhibitor; test system = supersomes; conditions = direct inhibition; measurement = IC50; value = 0.4 µM
